{"data": "Experimental data pooled from the literature", "note": "A part holds a random share of what one study measured. Positions count from the first letter of the parent shown."}
{"data": "Study 1", "target": "OGT, full length, His-tagged (human)", "technique": "phage display, sequencing", "medium": "in vitro", "concentration": "1 µg OGT", "notes": "single substitutions, 15-mer displayed peptide, unchanged parent 5.27", "baseline": "input library", "reading": "higher = stronger binding", "starting sequence": "peptide; GDFPVMFMPKYSIIY"}
{"Substitution": "I14H", "fold enrichment": "1.4 fold"}
{"Substitution": "V5A", "fold enrichment": "5.57 fold"}
{"Substitution": "I14F", "fold enrichment": "1.84 fold"}
{"Substitution": "M8P", "fold enrichment": "3.57 fold"}
{"Substitution": "F3K", "fold enrichment": "2.43 fold"}
{"Substitution": "Y11S", "fold enrichment": "1.07 fold"}
{"Substitution": "M8K", "fold enrichment": "1.5 fold"}
{"Substitution": "G1D", "fold enrichment": "6.64 fold"}
{"data": "Study 2", "target": "Prothrombin, mature alpha-thrombin (F2, Homo sapiens, UniProt P00734)", "technique": "aptamer microarray, sandwich", "form": "DNA with 2'F-ANA", "medium": "in vitro", "concentration": "200 nM", "notes": "whole 15-mer aptamer, many near background", "with": "Cy3 exosite-II aptamer, 400 nM", "reading": "higher = stronger binding", "sequence": "GGTTGGTGTGGTTGG"}
{"Modification": "2'F-ANA at 1 2 6 10 13 14 15", "mean fluorescence intensity": "49.9 a.u."}
{"Modification": "2'F-ANA at 2 5 6 7 8 10 13 14 15", "mean fluorescence intensity": "49 a.u."}
{"Modification": "2'F-ANA at 6 8 9 14 15", "mean fluorescence intensity": "164 a.u."}
{"Modification": "2'F-ANA at 3 4 5 7 8 9 10 11 12 13 15", "mean fluorescence intensity": "56 a.u."}
{"Modification": "2'F-ANA at 3 4 8 10 13 15", "mean fluorescence intensity": "238 a.u."}
{"Modification": "2'F-ANA at 1 4 5 8 9 10 13", "mean fluorescence intensity": "69.6 a.u."}
{"Modification": "2'F-ANA at 1 4 9 11 12 13 14", "mean fluorescence intensity": "54.2 a.u."}
{"Modification": "2'F-ANA at 2 5 6 8 9 10 11", "mean fluorescence intensity": "51.2 a.u."}
{"data": "Other studies, line by line", "P1": "viral docking peptide; CKVKRKLFGSENI; partner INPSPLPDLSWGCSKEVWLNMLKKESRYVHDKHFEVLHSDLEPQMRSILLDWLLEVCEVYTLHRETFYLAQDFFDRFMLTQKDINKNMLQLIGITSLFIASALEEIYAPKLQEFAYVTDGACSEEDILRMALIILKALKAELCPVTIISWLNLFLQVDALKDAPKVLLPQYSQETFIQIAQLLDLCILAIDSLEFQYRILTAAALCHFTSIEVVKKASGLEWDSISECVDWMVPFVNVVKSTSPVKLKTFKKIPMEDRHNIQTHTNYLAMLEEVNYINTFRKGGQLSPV"}
{"Molecule": "P1 G9A", "target": "CCNE2, cyclin fold, Cln2 fusion (human)", "test": "yeast growth competition, sequencing", "system": "yeast", "setting": "strong parent motif", "how to read": "baseline: not given, higher = stronger binding", "measurement": "normalised enrichment score", "result": 4.64}
{"Molecule": "PhoQ, residues 284 288 289 292 302 303 ASVMEA", "target": "PhoP, residues 12 14 15 18 19 STWGI (Escherichia coli, UniProt P23836)", "test": "Sort-seq, refers to: YFP reporter", "system": "E. coli", "setting": "PhoQ-PhoP variant library, with: 10 µM Mg2+", "how to read": "baseline: high Mg2+ state, higher = stronger signaling", "measurement": "fold induction", "result": 19.1}
{"note": "Excerpt of the above (study 1):"}
{"Substitution": "M8K", "fold enrichment": "1.5 fold"}
{"Substitution": "G1D", "fold enrichment": "6.64 fold"}
